Assay results gathered from unrelated publications.
Parts stem from different laboratories: compare values within a part only.

Study 1 — effect on: enzyme activity; mode: inhibitor; tested at: 20 µM
Target: Replicase polyprotein 1ab, polymerase (rep, Severe acute respiratory syndrome coronavirus 2, UniProt P0DTD1)
c1ccc(C2CN3CCSC3=N2)cc1 (stereo not shown) gave an inhibition of -2.84%.
O=C(/C=C\n1cnc(-c2cc(C(F)(F)F)cc(C(F)(F)F)c2)n1)NNc1cnccn1 gave an inhibition of -0.52%.
CCC(CO)(C(=O)OC1CC2CCC(C1)[N+]2(C)C)c1ccccc1 (stereo not shown) has an inhibition of 2.06%.
For CCC[C@H](N[C@H]1CCc2cc(F)cc(F)c2C1)C(=O)Nc1cn(C(C)(C)CNCC(C)(C)C)cn1, the inhibition was -1.72%.
For CNC(=O)c1ccccc1Sc1ccc2c(/C=C/c3ccccn3)n[nH]c2c1, the inhibition was 14.9%.
The inhibition of N[C@@H](Cc1ccc(O)c(O)c1)C(=O)O is reported as -0.18%.
The inhibition of CC(C)=CCC/C(C)=C/CNCCNC1C2CC3CC(C2)CC1C3 (stereo not shown) is reported as -2.68%.
O=C(O)CC1CC(c2ccccc2)=NO1 (stereo not shown) has an inhibition of -10.2%.
For Cc1cc(SCc2sc(-c3ccc(C(F)(F)F)cc3)nc2C)ccc1OCC(=O)O, the inhibition was 0.93%.
Cn1nnc2c(C(N)=O)ncn2c1=O has an inhibition of 3.79%.
O=C(OCC(COC(=O)c1cccnc1)(COC(=O)c1cccnc1)COC(=O)c1cccnc1)c1cccnc1 gave an inhibition of 5.68%.
CC(C)NC[C@@H](C(=O)N1CCN(c2ncnc3c2[C@H](C)C[C@H]3O)CC1)c1ccc(Cl)cc1 gave an inhibition of 0.45%.
O=C(O)c1cc(=O)c2c(OCC(O)COc3cccc4oc(C(=O)O)cc(=O)c34)cccc2o1 has an inhibition of 7.15%.
With CN(C)CCN(Cc1ccc(Cl)cc1)c1ccccn1 the inhibition was 3.73%.
For CCOc1ccc(C(=O)OCCN(CC)CC)cc1, the inhibition was -4.45%.
COc1ccc(OC)c(CN(C(C)=O)c2cc(F)ccc2Oc2ccccc2)c1 has an inhibition of -3.08%.
CC[N+](C)(CC)CC(=O)Nc1c(C)cccc1C gave an inhibition of 2.06%.
CC(C)(C)c1ccc(CN2CCN(C(c3ccccc3)c3ccc(Cl)cc3)CC2)cc1 (stereo not shown) gave an inhibition of -2.87%.
With CCNC(=O)C#Cc1ccc2c(C(=Nc3ccc(CN(C)C)cc3)c3ccccc3)c(O)[nH]c2c1 the inhibition was -1.72%.
For Cc1cc(NCCO)nc(-c2ccc(Br)cc2)n1, the inhibition was 0.41%.
For Cc1cc(N2CCOCC2)ccc1Nc1nc(NC2CCCCC2)c2[nH]cnc2n1, the inhibition was 0.91%.
C[C@@H](NCc1cc(Br)cc2[nH]c(=O)c(=O)[nH]c12)P(=O)(O)O gave an inhibition of 1.68%.
The inhibition of CN(C)Cc1c(C(=O)NCCOc2ccc(C(=O)NO)cc2)oc2ccccc12 is reported as 4.69%.
With CCOc1c2c(c(OCC)c3ccccc13)C(=O)N(c1ccc(CC(=O)NS(=O)(=O)c3ccccc3)cc1)C2 the inhibition was -0.87%.
CCCCCC(C)N (stereo not shown) gave an inhibition of 0.44%.

Study 2 — technique: universal PBM; form: double-stranded DNA, one strand shown; medium: in vitro; tested at: not given; reading: higher = stronger binding
Target: Sal-like protein 4, full length isoform B (SALL4, Homo sapiens, UniProt Q9UJQ4-2, residues 1-616)
Setting: 8-mer, flanks averaged, mean of replicates
The E-score of `GGCAATAA` is reported as 0.217.
With `AGAAGCCC` the E-score was -0.111.
`CCCGTTGA` has an E-score of -0.194.
`GAGCGCGC` has an E-score of -0.274.
`CGAGAAAG` has an E-score of 0.0309.
The E-score of `ATCCGTGC` is reported as 0.0207.
For `ATCTCTTC`, the E-score was 0.12.
With `CAAGCAAA` the E-score was 0.149.

Study 3 — technique: RNA Bind-n-Seq; form: RNA; medium: in vitro; tested at: not given; setting: RNA with constant flanks, ends assumed; baseline: input RNA pool; reading: higher = stronger binding
Target: RING finger protein unkempt homolog, zinc fingers 1-6, GST-SBP tag (UNK, Homo sapiens, UniProt Q9C0B0, residues 30-357)
Shared flanks, not repeated: GGGAGUUCUACAGUCCGACGAUC … CAACAGAGGAUUGAGCAUCA
Construct (chain): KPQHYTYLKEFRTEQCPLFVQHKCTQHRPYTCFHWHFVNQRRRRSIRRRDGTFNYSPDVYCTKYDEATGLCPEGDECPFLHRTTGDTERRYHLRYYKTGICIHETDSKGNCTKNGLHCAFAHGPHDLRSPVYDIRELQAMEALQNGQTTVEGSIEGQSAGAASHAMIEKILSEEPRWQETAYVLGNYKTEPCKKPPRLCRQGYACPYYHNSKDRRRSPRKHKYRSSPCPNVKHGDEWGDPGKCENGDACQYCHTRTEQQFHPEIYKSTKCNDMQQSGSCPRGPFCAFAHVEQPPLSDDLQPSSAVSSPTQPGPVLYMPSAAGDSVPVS
`CGCGCCAUUCAGGGAGCAACAUCACACCAUUUAGGCCAGAAUUUCUCCAAAAUGUGUGAAACCGUUUUUGAAGAUCCCAAGACACCAGGAGAAAAGCAGUUUGCAUACCAGUGCUCCUGG` gave a bound/input enrichment of 0.114 ratio.
`GAAAUUUUGAAAUGGUAUCUCAACAAGAUAAAGUUUGAUAAAUCUGUUGAUCCAGAAAUCACCGCUCGAGGGACUGUUGGGUUCUCUGGAGCAGAGUUGGAGAAUCUUGUGAACCAAGCU` gave a bound/input enrichment of 0.183 ratio.
`UUUAUCAGAACACUUCUGGCUGUUACAAGACCAUUUAUUAGCUCGAAAUUCAGCCAAAAAAUCCGAUACGUGUUUAAUUUGGCAGAACUAGCAGAACUUGUCCCCAUGGAAUACGUUGGC` gave a bound/input enrichment of 0.314 ratio.
`CUUUUUAAGAAGAUAUGUGAUGGGAUCUUCUAUACCCCUCAAUAUUUAAAUCCUUCUGUGAUCCGCCUUUUGAAACAUAUGCUGCAGGUGGAUCCCAUGAAGAGGGCCACAAUCAAAGAU` gave a bound/input enrichment of 0.229 ratio.
With `UAUUUUUAUAACUAUCCAGCAGUGUGUGAAUUUUUGCAAAACAAUAAUUUGUUAUCGAUUAUCCGAGCUCAUGAAGCUCAAGAUGCAGGCUAUAGAAUGUACAGAAAAAGUCAAACUACA` the bound/input enrichment was 0.386 ratio.
The bound/input enrichment of `UCCAGAAGCACUGCGUAUGAAGAUUAUUACUACCACCCUCCUCCUCGCAUGCCACCUCCAAUCCGAGGUCGGGGUCGUGGUGGGGGGAGAGGUGGAUAUGGCUACCCUCCAGAUUACUAC` is reported as 0.0843 ratio.
`AUGACCCUUGGACAGCAGGAUGUUUCCAAAGUCCUGCUAGGCCCUCUCUCUCCCUACACGACCGAAUUUUUGCGGCAUUUGAAGAGCUUUUUCCAGAUUAUGUUUAAAAUUGAAACCAAG` gave a bound/input enrichment of 0.405 ratio.
The bound/input enrichment of `GCCAACAUCAAACGGGAACAGGGCAACAUUGAAGAGGCAGUUCGCCUGUAUCGCAAAGCAUCCGAAGUCUUCCCAGAGUUUGCUGCUGCACAUUCCAAUUUAGCAAGUGUACUGCAACAG` is reported as 0.243 ratio.

Study 4 — effect on: enzyme activity; mode: inhibitor
Target: Replicase polyprotein 1ab, main protease (rep, Severe acute respiratory syndrome coronavirus 2, UniProt P0DTD1)
The IC50 of Nc1nc(-c2ccc(Cl)c(Cl)c2)c(-c2ccncc2)s1 is reported as 5.37 µM.
With O=C(O)/C(S)=C/c1ccc(I)cc1 the IC50 was 20.3 µM.
O=C1C[C@@H]2OCC=C3CN4CC[C@]56c7ccccc7N1[C@H]5[C@H]2[C@H]3C[C@H]46 has an IC50 of 10.4 µM.
With O=C(O)c1cc(N2N=C(C(F)(F)F)/C(=C/c3ccc(-c4ccccc4)o3)C2=O)ccc1Cl the IC50 was over 20 µM.

Study 5 — technique: RNA Bind-n-Seq; form: RNA; medium: in vitro; tested at: 200 nM; setting: whole 134-nt RNA, ends assumed; with: 150 mM KCl; baseline: input library; reading: higher = stronger binding
Target: Fragile X messenger ribonucleoprotein 1, C-terminal low-complexity region (Fmr1, Mus musculus, UniProt P35922)
Shared flanks, not repeated: GGGAGUUCUACAGUCCGACGAUC … UGGAAUUCUCGGGUGUCAAGG
`CCUGUGCUACACAUCGUAUGUACCGAAUCGGGAAAAAAAGGGUUUUUUUGGGUUUUUGGGAAAGUAUUAUGUUACGCCGUUCGGAUCUGC` gave a log2 enrichment of -0.937.
For `AAACUUUAGAGGAGGAUCUGAUGGAUAUGGCAGUGGACGUGGAUUUGGGGAUGGCUAUAAUGGGUAUGGAGGAGGACCUGGAGGUGGCAA`, the log2 enrichment was 0.353.
With `CUGUGCUACACAUCGUAUGUACCGAAUCGGGAAAAAAAGGGUUUUUUUGGGUUUUUUUGGGAAAGUAUUAUGUUACGCCGUUCGGAUCUG` the log2 enrichment was -1.41.
`UAACUUUAGAGGAGGAUCUGAUGGAUAUGGCAGUGGACGUGGAUUUGGGGAUGGCUAUAAUGGGUAUGGAGGAGGGCCUGGAGGUGGCAA` has a log2 enrichment of 0.516.
`UGGGAGGUGGAUUUUGUUUAUUUUUUUAGCUCAUUUCCAGGGGUGGGAAUUUUUUUUUAAUAUGUGUCAUGAAUAACGUUGUUUUUGAAA` has a log2 enrichment of 0.208.
With `UCAGAAGGUCUUUUAAGUCUGACCACCCAGCUUGUCAAGGAAAAACUCUCCACCUGUGAAGCAGAGGACAUCGCCACCUAUGAGCAGAAU` the log2 enrichment was 0.736.
`UGGCCCCGGUGGCAUGCGGGGAGGAAGAGGUGGCCUCAUGGAUCGUGGUGGUCCCGGUGGAAUGUUCAGAGGUGGCCGUGGUGGAGACAG` gave a log2 enrichment of -0.102.
With `UGGAUUAGAGAGAAAUUGAAUUUUUUCUUACUUGAACUCCUACUAAAAAGUGAACUAAAUAUUUUAUUGUAGUAAUGGCAUAGAGGAGCC` the log2 enrichment was -0.588.

Further values, each from its own experiment — organism: Vesicular stomatitis virus; effect on: pseudovirus infection; tested at: concentration not given; setting: SARS-CoV-2 spike pseudotype
With O.O.O.O.O=C([O-])CC(O)(CC(=O)[O-])C(=O)[O-].[Li+].[Li+].[Li+] the GFP signal was 103%.
The GFP signal of CC(C)OC(=O)[C@H](C)N[P@](=O)(CO[C@H](C)Cn1cnc2c(N)ncnc21)Oc1ccccc1 is reported as 85%.

For quick reference, copied from above (study 1):
With CCOc1c2c(c(OCC)c3ccccc13)C(=O)N(c1ccc(CC(=O)NS(=O)(=O)c3ccccc3)cc1)C2 the inhibition was -0.87%.
C[C@@H](NCc1cc(Br)cc2[nH]c(=O)c(=O)[nH]c12)P(=O)(O)O gave an inhibition of 1.68%.
With CN(C)CCN(Cc1ccc(Cl)cc1)c1ccccn1 the inhibition was 3.73%.
CCCCCC(C)N (stereo not shown) gave an inhibition of 0.44%.
COc1ccc(OC)c(CN(C(C)=O)c2cc(F)ccc2Oc2ccccc2)c1 has an inhibition of -3.08%.
The inhibition of N[C@@H](Cc1ccc(O)c(O)c1)C(=O)O is reported as -0.18%.
